Experimental data collected from several papers.
Each numbered part is a random draw from the data of one study; scales do not carry over between parts.

Block 1
Target: Replicase polyprotein 1ab, main protease (rep, Severe acute respiratory syndrome coronavirus 2, UniProt P0DTD1)
Effect on: enzyme activity
Action: inhibitor
Tested at: 20 µM
Notes: hit confirmation, with DTT
Structure (SMILES) | inhibition [%]
COc1ccc2[nH]c([S+]([O-])Cc3ncc(C)c(OC)c3C)nc2n1 (centres unmarked) | -9.8
C/C=C1/[C@H](O[C@@H]2O[C@H](CO)[C@@H](O)[C@H](O)[C@H]2O)OC=C(C(=O)OC)[C@H]1CC(=O)OCCc1ccc(O)c(O)c1 | -15.3
O=C1c2c(O)cc(O)cc2O[C@H](c2cc(O)c(O)c(O)c2)[C@H]1O | -14.3

Block 2
Target: Histone acetyltransferase KAT6A, winged helix 2, GST fusion (KAT6A, Homo sapiens, UniProt Q92794, residues 85-181)
Method: protein binding microarray
Form: double-stranded DNA, one strand shown
Medium: in vitro
Tested at: not given
Notes: 8-mer, flanks averaged, mean of 2 arrays, mostly near background
Relative to: not given
Reading: higher = stronger binding
Target sequence (chain): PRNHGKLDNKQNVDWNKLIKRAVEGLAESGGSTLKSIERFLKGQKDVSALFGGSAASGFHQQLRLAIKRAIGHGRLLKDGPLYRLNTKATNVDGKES
Strand | E-score
ACCCTTGA | -0.157
AGGTGAAC | 0.0667
ATGACACG | 0.0118
TAGTCACA | -0.143
CCTGCCCA | 0.092
CTAAAAAG | 0.11
AAAAGACC | -0.144
CCGGGCGA | 0.00436

Block 3
Target: Sal-like protein 4, full length isoform A (SALL4, Homo sapiens, UniProt Q9UJQ4, residues 1-1053)
Sequence of UniProt Q9UJQ4 (whole entry, looked up): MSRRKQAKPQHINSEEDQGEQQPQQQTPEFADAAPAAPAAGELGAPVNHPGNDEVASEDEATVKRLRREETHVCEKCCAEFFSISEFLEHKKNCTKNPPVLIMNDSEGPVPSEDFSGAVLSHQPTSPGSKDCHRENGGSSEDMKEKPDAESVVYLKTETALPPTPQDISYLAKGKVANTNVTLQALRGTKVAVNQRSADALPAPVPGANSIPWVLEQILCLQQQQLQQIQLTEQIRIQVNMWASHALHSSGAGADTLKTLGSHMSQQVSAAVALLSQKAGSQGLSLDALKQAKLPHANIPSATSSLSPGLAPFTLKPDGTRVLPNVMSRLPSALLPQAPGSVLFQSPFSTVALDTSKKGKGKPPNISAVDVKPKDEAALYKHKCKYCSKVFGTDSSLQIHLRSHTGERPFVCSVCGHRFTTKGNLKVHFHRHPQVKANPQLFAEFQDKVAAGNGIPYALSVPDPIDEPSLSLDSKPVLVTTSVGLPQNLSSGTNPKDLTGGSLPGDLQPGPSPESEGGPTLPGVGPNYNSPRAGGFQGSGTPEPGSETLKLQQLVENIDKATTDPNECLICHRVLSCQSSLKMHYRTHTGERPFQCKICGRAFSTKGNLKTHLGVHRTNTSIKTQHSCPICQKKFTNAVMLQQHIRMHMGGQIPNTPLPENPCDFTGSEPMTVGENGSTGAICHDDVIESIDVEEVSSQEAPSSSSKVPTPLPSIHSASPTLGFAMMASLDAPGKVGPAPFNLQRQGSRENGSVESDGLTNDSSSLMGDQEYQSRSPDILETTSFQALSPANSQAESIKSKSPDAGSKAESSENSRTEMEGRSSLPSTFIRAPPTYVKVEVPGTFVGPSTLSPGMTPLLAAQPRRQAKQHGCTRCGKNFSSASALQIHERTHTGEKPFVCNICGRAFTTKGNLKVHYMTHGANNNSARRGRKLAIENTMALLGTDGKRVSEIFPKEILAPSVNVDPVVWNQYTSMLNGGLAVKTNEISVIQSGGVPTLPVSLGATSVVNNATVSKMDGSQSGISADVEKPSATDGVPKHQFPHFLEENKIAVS
Method: universal PBM
Form: double-stranded DNA, one strand shown
Medium: in vitro
Tested at: 600 nM
Notes: 8-mer, flanks averaged, mean of replicates
Reading: higher = stronger binding
Strand | E-score
AATCTGGG | -0.0973
GAGCGCGC | -0.219
TGATCCCA | -0.071
AGCCTAAA | -0.00728
GAACTACC | -0.00662
ATAGGCAC | 0.0732
GACCAATA | 0.202
CAATAATC | 0.288

Block 4
Target: Replicase polyprotein 1ab, polymerase (rep, Severe acute respiratory syndrome coronavirus 2, UniProt P0DTD1)
Effect on: enzyme activity
Action: inhibitor
Tested at: 20 µM
Structure (SMILES) | inhibition [%]
N#Cc1cc(F)cc(-c2nc(-c3ccc(F)cn3)no2)c1 | -0.65
O=C1c2c(O)ccc(O)c2C(=O)c2c(NCCNCCO)ccc(NCCNCCO)c21 | 104
COc1ccc(Cl)c(Nc2nc3ccccc3nc2NS(=O)(=O)c2cccc(NC(=O)C(C)(C)N)c2)c1 | 13.7
Cn1c(NCCN(CCO)CCCc2ccc([N+](=O)[O-])cc2)cc(=O)n(C)c1=O | -2.17
CN1C(=O)N[C@H](Cc2c[nH]c3c(Cl)cccc23)C1=O | -2.43
CCNCc1cc(C(C)(C)C)c(O)c(C(C)(C)C)c1 | 2.16
Nc1nc(Nc2ccccc2)nc2c1ncn2[C@@H]1O[C@H](CO)[C@@H](O)[C@H]1O | 3.88
CN1CCc2cc3c(cc2[C@H]1[C@@H]1OC(=O)c2c1ccc1c2OCO1)OCO3 | 0.72
CC(=O)[C@]1(O)Cc2c(O)c3c(c(O)c2[C@@H](O[C@H]2C[C@H](N)[C@H](O)[C@H](C)O2)C1)C(=O)c1ccccc1C3=O | 62.7
COC(=O)c1ccccc1O | 2.05
C[C@@H](C(=O)O)c1ccc(-c2ccccc2)c(F)c1 | 1.54
Cc1onc(-c2c(F)cccc2Cl)c1C(=O)N[C@@H]1C(=O)N2[C@@H]1SC(C)(C)[C@@H]2C(=O)O | 0.84
CNS(=O)(=O)CCc1ccc2[nH]cc(C3CCN(C)CC3)c2c1 | 2.05
N[C@@H]1CCN(c2cccnc2)C1 | 5.44
O=C(C[C@H]1NCCC[C@@H]1O)Cn1cnc2cc(Br)c(Cl)cc2c1=O (racemic) | -8.79
N[C@@H](C(=O)O)c1ccc(C(=O)O)c(C(=O)O)c1 | -4.41
CCOC(=O)[C@H](C)C[C@@H](Cc1ccc(-c2ccccc2)cc1)NC(=O)CCC(=O)O | -5.18
Cc1cccc(NC(=O)N[C@@H]2N=C(c3ccccc3)c3ccccc3N(CC(=O)c3ccccc3C)C2=O)c1 | -1.93
CC(=O)N[C@@H](CS)C(=O)O | 4.25

Some of these lines once more (block 3):
Strand | E-score
GAGCGCGC | -0.219
TGATCCCA | -0.071
AGCCTAAA | -0.00728
GAACTACC | -0.00662
ATAGGCAC | 0.0732
GACCAATA | 0.202
